# Published values pooled from the literature.
# A part holds a random share of what one study measured.

# Series 1
# Target: RING finger protein unkempt homolog, zinc fingers 1-6, GST-SBP tag (UNK, Homo sapiens, UniProt Q9C0B0, residues 30-357)
# Chain of UniProt Q9C0B0 (30-357, looked up): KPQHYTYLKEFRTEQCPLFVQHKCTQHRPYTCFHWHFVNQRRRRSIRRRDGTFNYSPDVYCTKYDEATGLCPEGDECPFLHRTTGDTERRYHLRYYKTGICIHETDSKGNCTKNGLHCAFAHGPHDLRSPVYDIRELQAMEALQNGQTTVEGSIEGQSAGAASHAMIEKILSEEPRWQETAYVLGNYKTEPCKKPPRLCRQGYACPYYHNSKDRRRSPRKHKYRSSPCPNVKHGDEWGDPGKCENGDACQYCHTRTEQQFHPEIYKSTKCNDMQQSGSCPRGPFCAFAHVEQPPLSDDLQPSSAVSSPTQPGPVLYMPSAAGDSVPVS
# Technique: RNA Bind-n-Seq
# Form: RNA
# Sample: in vitro
# Concentration: not given
# Setting: RNA with constant flanks, human and mouse sites, ends assumed
# Reference: input RNA pool
# Direction: higher = stronger binding
# Shared flanks, not repeated: GGGAGUUCUACAGUCCGACGAUC … CAACAGAGGAUUGAGCAUCA
Strand,bound/input enrichment
CAUUCUCUUAGUGAUGGGCUGGAGGAAGUCCAAAAAGCAGAAAUGAAAGCUUACAUGGAAUUAGUCAACAAUAUGCUGUUGACUGCAGAGCUGUAUCUUCAGUGGUGUGAUGAAGCUACA,0.157 ratio
GUCACAGGGCUCCUGAAGGAGCUGCACGUCCGACUGGAGAGACGGUCAAGGCUGGUGGUUCUGUCAACCGUCGGGGUGCCAGGCACGGGCAAGUCCACACUCCUCAACACCAUGUUUGGG,0.16 ratio
GCAUCCCCAGAUGUCAAAUUAAAUCUUGGUGGAGAUUUUAUCAAAGAAUCUACAGCUACUACAUUUCUGAGACAAAGAGGUUAUGGCUGGCUUCUGGAAGUUGAAGAUGAUGAUCCUGAA,0.254 ratio
GUCCCUGCCCUGCUGUACCCCGCUCCUUGGAGACCCCCUGUAUCCCUCCCGCAAGGUGGAAUCCGCAGGCUGGAGGCUCCCAGGGGAGGCAAACGCCUGGCCCUGCCCUGCCCCACGCCG,0.44 ratio
CCAGUCCACAGGGGAAGCCUGUUAGGACUGUGGAGCGUGUUUCCCCGAAGGUAGCUUCCAACUAGGCUUUCCUCACUGCUUUCUCCCCCAGCGCCUGUAUUAUGUGAAGGAGGCCCAUGG,0.359 ratio
GGGUUUGGGGUAGAAGGGAGGGAGGGGGCAGGACAGUGUGGAAUCUCUAGGGUGUAUGGGUAGGUAGGGGGCACAGUUAGUUCUAAGUGGGCUUUUAUGCUAAAAGCCUCUGGGGAUAUC,14.7 ratio
UCAGGCUUAUUGAUGAUGCUUUUUGCAAAUGUUGAAUCAUGGUUCUGUUUCUAAGUUGGAUCUUUUUUGUUUUCUCCUUGCCACCCUAAUUUGACAUCAAAAUUCUCUCUUGUGCAUUGG,0.163 ratio
AAUAUGGUUCGUCAUUCUUCGUCUCCAUAUGUAUUGUAUCCACCUGAUAAGCCUUUCCUUAACAGUGAUCUGAGACGCUCCCCAAAUAAGCCCACAUUUGCCUAUCCGGAAAGCAACAGC,0.14 ratio

# Series 2
# Target: Histone acetyltransferase KAT6A, winged helix 2, GST fusion (KAT6A, Homo sapiens, UniProt Q92794, residues 85-181)
# Technique: protein binding microarray
# Form: double-stranded DNA, one strand shown
# Sample: in vitro
# Concentration: not given
# Setting: 8-mer, flanks averaged, mean of 2 arrays, mostly near background
# Reference: not given
# Direction: higher = stronger binding
# Construct (chain): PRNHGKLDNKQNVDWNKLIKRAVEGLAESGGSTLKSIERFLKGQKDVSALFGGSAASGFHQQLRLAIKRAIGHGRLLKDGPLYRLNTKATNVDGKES
Strand,E-score
CTGTACAG,-0.141
CACGGACC,0.0761
CATTTCGC,-0.148
CATGCATC,0.155
AATCTGCT,0.118
AGCACCTC,0.0177
AGGTGGCG,0.0487
ACATCGAG,-0.0542
GATTGTGA,0.0244
GAATTCTC,-0.0533
TTCAGAAA,0.0717
ATTAATAC,-0.0413
CCAAGCAA,-0.0122
GCCAAGGC,-0.00996
CTAACTGC,-0.0828
CACAATCG,0.0847
CGCGTGGC,0.175
CAGTTCGA,-0.0239
GACCCCCA,-0.17
CTACTGGA,-0.197
ATTGAACA,-0.0609
CTGGGACC,0.0181

# Series 3
# Target: RNA binding protein fox-1 homolog 2, RRM domain, GST-SBP tag (RBFOX2, Homo sapiens, UniProt O43251-10, residues 100-194)
# Technique: RNA Bind-n-Seq
# Form: RNA
# Sample: in vitro
# Concentration: 365 nM
# Setting: natural RNA segment, single round, ends assumed
# Reference: no-protein control
# Direction: higher = stronger binding
# Shared flanks, not repeated: GGGAGUUCUACAGUCCGACGAUC … UGGAAUUCUCGGGUGCCAA
# Residues (chain): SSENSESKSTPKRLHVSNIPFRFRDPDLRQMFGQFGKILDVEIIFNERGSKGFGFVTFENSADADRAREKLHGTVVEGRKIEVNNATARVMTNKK
Strand,RBNS enrichment (R)
CUCCUUUGGGUAAGAGUCUGUUUGCCAUACAUCACUCUUCCACUGUGGCUUGGUAUUGUGCAGAUUACCUCUUUGAUAGGUCUAGUCACCUUGUUCAGUGCCUGUCUAAC,0.68
AUGUAUUCAUUUGCAGUCUUUGUAUUUAAAAAAACUUUACUGUUAUGUUUGUAUAAUAGAACAUUAAUCAUUUAUUAUAACUCAGACAAGGUGUAAAUAAAUUCAUAAUU,0.55
AGUAAUUAAUAGGAGGCCCAGCCUGGCAGACGCUUGCUGACGCUCCUUGGCUCUUGCCUGCUUGUCUUUUUCAUUCCAUCAUGGCUUCCCUUUUCAUAGCUGGAUCUUCC,0.418
CUCUAGCCCCCAUCCAUCCUUCCCAUCUCCCAGCUAGAGGGAGAGCUGGGCUUUGGACAGAAAAGAGAAGGGGCUGGAGCAGACAGAGCACAGGACCUGUCCCUGUGAGC,0.356
CACUUUCUCAAGAACAAGAACCUAGAAUGAAUAUCCAAGCACCUCGAGCUAUGCAACCUCUGUUCUUGUAUUUCUUAUGAUCUCUGAUGGGUUCUUCUCGAAAAUGCCAA,0.655
GGCCAGAACCAGCCUCUGCGGGGCUUGUGCUCUGCAAAGACUCUGCUGCUGGGGAUUCAGCUCUAGAGGUCACAGUAUCCUCGUUUGAAAGAUAAUUAAGAUCCCCCGUG,0.291
GUUUACAAGGUGGAGUCGGGGCUUGCUGACUUCUCUUCAUUUGAGGUCACAUUUUUCCCCCGUGGGGAAAUAAACUGACUUUGGACUGCUUCAGUCUCUGCCAUCUUCCA,0.382
AGCGGGCAGGUUCUGCCUGCUUUGGCGGGCAGACACGCGGGCGCGAUCCCACACAGGCUGGCGGGGGCCGGCCCCGAGGCCGCGUGCGUGAGAACCGCGCCGGUGUCCCC,0.234

# Series 4
# Target: Ras GTPase-activating protein-binding protein 1, full length (G3BP1, Homo sapiens, UniProt Q13283)
# Chain of UniProt Q13283 (whole entry, looked up): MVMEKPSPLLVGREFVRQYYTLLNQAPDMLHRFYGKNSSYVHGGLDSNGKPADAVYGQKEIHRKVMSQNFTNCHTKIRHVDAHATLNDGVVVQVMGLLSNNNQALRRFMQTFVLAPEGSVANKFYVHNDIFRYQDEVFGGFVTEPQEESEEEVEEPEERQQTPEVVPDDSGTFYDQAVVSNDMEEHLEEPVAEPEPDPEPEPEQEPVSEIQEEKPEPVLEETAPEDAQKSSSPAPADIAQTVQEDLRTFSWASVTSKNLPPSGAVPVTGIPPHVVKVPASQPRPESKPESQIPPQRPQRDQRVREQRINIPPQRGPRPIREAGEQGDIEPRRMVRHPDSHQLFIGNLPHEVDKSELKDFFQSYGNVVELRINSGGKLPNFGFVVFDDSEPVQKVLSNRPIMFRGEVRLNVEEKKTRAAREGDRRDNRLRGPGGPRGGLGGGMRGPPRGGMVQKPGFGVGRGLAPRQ
# Technique: RNA Bind-n-Seq
# Form: RNA
# Sample: in vitro
# Concentration: 200 nM
# Setting: whole 134-nt RNA, ends assumed
# Together with: 150 mM KCl
# Reference: input library
# Direction: higher = stronger binding
# Shared flanks, not repeated: GGGAGUUCUACAGUCCGACGAUC … UGGAAUUCUCGGGUGUCAAGG
Strand,log2 enrichment
AAGUCCUGUGCUACACAUCGUAUGUACCGAAUCAAAUUUAAACCCAAAUUUUUAAAAAAGUAUUAUGUUACGCCGUUCGGAUCUGCACUU,-0.468
AGUCCUGUGCUACACAUCGUAUGUACCGAAUCGGGAAAAAGGGUUUUUGGGAAAGGGAAAGUAUUAUGUUACGCCGUUCGGAUCUGCACU,-0.431
GUCCUGUGCUACACAUCGUAUGUACCGAAUCGGUUUUUUGGUUUUUUGGGUUUUUUGGGAAAGUAUUAUGUUACGCCGUUCGGAUCUGCA,-1.11
ACCAUGCAGGUGGGCAUCUUGGGGAAGUGGGGCAAGGGGGGGAUAGGGAGGGGGGUAACACUUUGGGAACAGGUGGUCCCAGGUCGUUUC,1.53
UGGGAGGUGGAUUUUGUUUAUUUUUUUAGCUCAUUUCCAGGGGUGGGAAUUUUUUUUUAAUAUGUGUCAUGAAUAAAGUUGGUUUUGAAA,0.158
AGUCCUGUGCUACACAUCGUAUGUACCGAAUCAAAUUUAAAUUUAAAUUUUUUUAAAAAAGUAUUAUGUUACGCCGUUCGGAUCUGCACU,-1.73
GUCCUGUGCUACACAUCGUAUGUACCGAAUCGGAAAAAAAGGUUUUUUUGGAAAAAGGAAAGUAUUAUGUUACGCCGUUCGGAUCUGCAC,-1.56
CCUGUGCUACACAUCGUAUGUACCGAAUCAAAUUUUUAAAUUUUUUUAAAUUUUUUUAAAAAAGUAUUAUGUUACGCCGUUCGGAUCUGC,-1.13
UCCUGUGCUACACAUCGUAUGUACCGAAUCGGAAAAAAGGGGAAAAAAGGAAAAAAGGGGAAAGUAUUAUGUUACGCCGUUCGGAUCUGC,-0.604

# For quick reference, copied from above (series 1):
Strand,bound/input enrichment
GUCCCUGCCCUGCUGUACCCCGCUCCUUGGAGACCCCCUGUAUCCCUCCCGCAAGGUGGAAUCCGCAGGCUGGAGGCUCCCAGGGGAGGCAAACGCCUGGCCCUGCCCUGCCCCACGCCG,0.44 ratio
CCAGUCCACAGGGGAAGCCUGUUAGGACUGUGGAGCGUGUUUCCCCGAAGGUAGCUUCCAACUAGGCUUUCCUCACUGCUUUCUCCCCCAGCGCCUGUAUUAUGUGAAGGAGGCCCAUGG,0.359 ratio
GGGUUUGGGGUAGAAGGGAGGGAGGGGGCAGGACAGUGUGGAAUCUCUAGGGUGUAUGGGUAGGUAGGGGGCACAGUUAGUUCUAAGUGGGCUUUUAUGCUAAAAGCCUCUGGGGAUAUC,14.7 ratio
UCAGGCUUAUUGAUGAUGCUUUUUGCAAAUGUUGAAUCAUGGUUCUGUUUCUAAGUUGGAUCUUUUUUGUUUUCUCCUUGCCACCCUAAUUUGACAUCAAAAUUCUCUCUUGUGCAUUGG,0.163 ratio
AAUAUGGUUCGUCAUUCUUCGUCUCCAUAUGUAUUGUAUCCACCUGAUAAGCCUUUCCUUAACAGUGAUCUGAGACGCUCCCCAAAUAAGCCCACAUUUGCCUAUCCGGAAAGCAACAGC,0.14 ratio
